Published values gathered from unrelated publications.
Every numbered part comes from another study and shows a few of its results, in no order. Positions count from the first letter of the parent shown.

Sample 1 — method: RNA Bind-n-Seq; form: RNA; medium: in vitro; tested at: not given; relative to: input RNA pool; direction: higher = stronger binding; measurement: bound/input enrichment
Target: RING finger protein unkempt homolog, zinc fingers 1-6, GST-SBP tag (UNK, Homo sapiens, UniProt Q9C0B0, residues 30-357)
Sequence of UniProt Q9C0B0 (30-357, looked up): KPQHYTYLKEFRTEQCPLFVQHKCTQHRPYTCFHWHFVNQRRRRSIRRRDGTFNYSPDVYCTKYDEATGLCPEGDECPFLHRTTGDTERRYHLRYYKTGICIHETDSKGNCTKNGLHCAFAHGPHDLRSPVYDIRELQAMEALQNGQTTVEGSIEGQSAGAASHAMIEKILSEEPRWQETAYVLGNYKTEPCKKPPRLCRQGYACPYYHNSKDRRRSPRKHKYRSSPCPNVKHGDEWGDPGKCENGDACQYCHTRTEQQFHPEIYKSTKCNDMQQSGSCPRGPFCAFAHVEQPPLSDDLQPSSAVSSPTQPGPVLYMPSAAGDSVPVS
Notes: RNA with constant flanks, human and mouse sites, ends assumed
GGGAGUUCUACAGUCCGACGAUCAUGCUGGGCAAGCGACCUCGGAGAAAGAGCAGUCGUAGAAAGAAGGCCGUGUCUGCCCCAGCCGGCUAUCCAGAGGGGUCCGUGAUUGAGGCCUGGGUGGCCGAAGAGGAAGAUGAUAACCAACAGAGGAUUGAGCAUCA: 0.29 ratio
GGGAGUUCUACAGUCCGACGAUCCACUUUUCUUGGGUUUUCCUGGAUGACAUCUUUGAGGUGAAACUUCAUGAUAACUACGAACUGAUGAAGGAUGAAAGUAAGGAGAGUGCCAAAAGGCUGCAGUUGCUAGAUGCCAAAGUGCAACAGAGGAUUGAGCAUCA: 0.204 ratio
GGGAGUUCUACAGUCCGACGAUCUUGCUACUGACUCCCUGGGUCAAGUUCCUGUGGGAAUCAUACAGGCAGUGUUUGGACCUUCUUCGAAACAAUUCUAGAGUAGAGCGCCUUUACCAUGAUAUCGCCCAACAAGCUUUCAAACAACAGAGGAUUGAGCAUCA: 0.156 ratio
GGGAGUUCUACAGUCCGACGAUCCCAGGCAUGAAAGUCCAAGUGCGGUAUGGACGAGGGAAAAAUCAAAAAAUGUAUGAAGCUAGUAUAAAAGAUUCUGAUGUCGAAGGUGGAGAGGCCCUUUACUUGGUGCAUUACUGCGGACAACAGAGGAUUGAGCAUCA: 2.93 ratio
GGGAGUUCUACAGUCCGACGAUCCAUUUGAUGUAUGCGGUGAGGGAGGAAGUGGAAGUUCUGAAGGAGCAGAUCAAAGAACUAAUAGAGAAAAACUCCCAGCUGGAGCAGGAGAACAAUCUGCUGAAGACGCUGGCCAGUCCGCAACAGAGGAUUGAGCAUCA: 0.31 ratio
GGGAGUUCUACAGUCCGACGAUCGGUUUUGUUCCUGGCUUUCAGAAAACCAACGCCAAGAUCCCUCCCAGCGUCCACAUCGUCCUCUGGCAGGAGCUCCUGCCCCUCUGCCUCCCACCCUGCCCCCUACACCCCCUGCAGACCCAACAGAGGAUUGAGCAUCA: 0.654 ratio
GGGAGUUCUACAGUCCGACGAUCCUGGCUUAGAUAAUAUGGCUACACACUUAAGUCAGCAUGAAACUCAUUCUUGCCGAGUUCUAGUAGAGCAAGUUUCUGUUUGUAUCCCAACUUCUGAACGUCUUUCUGAAAUAAAAACUGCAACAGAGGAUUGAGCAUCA: 0.524 ratio
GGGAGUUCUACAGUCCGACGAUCAGUAAAGAGGGGAAACCUAAGACCAUAAUUGUGAAUUGGCAGCCUCCCUCCGAAGCCAAUGGCAAAAUUACAGGUUACAUCAUAUAUUACAGUACAGAUGUGAAUGCAGAGAUACAUGACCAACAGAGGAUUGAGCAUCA: 0.15 ratio
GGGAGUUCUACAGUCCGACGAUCAUUCAGCACUCCCAACCAGACCCUGGGAUGGGUGAGAGAAAAGCGGGGGUGUCUCUCCCCUCCCCACUCUGCCCAGCUCUCAUCACUGUCAGACCCACCAGAGCUGAGGGCGGAGGGAUUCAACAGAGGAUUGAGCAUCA: 0.331 ratio
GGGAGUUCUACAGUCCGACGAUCGACUUUGGAACUGGUCCUCGUAAUGCAGCCUACUAUAGCCCUCAUGGACAUAUAUUAGUAUUAGCUGGAUUUGGAAAUCUGAGGGGACAAAUGGAAGUGUGGGAUGUGAAAAACUACAAACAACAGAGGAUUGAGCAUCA: 0.482 ratio
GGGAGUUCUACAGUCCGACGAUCAUGGUUCACUUGACUCUUCUCUGGUUUCUCCCUGCUGCCCUGGUUCUAGGUGGGCUCAGCCUGAGGUAUUGUAGUUGUCAUGUAGUCACUAUUGUGACUACCUGUUGUGUGCUAUUGCCCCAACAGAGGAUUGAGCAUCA: 0.461 ratio

Sample 2 — method: DHFR PCA, deep sequencing; medium: yeast; added: (+)-ABA 710 µM; relative to: wild-type fitted maximum; direction: higher = stronger binding; measurement: relative binding score
Target: ABI1, truncated, D143A, DHFR fusion (Arabidopsis thaliana)
Notes: methotrexate growth selection, single substitutions
Starting sequence: PYL1, truncated, DHFR fusion (Arabidopsis thaliana); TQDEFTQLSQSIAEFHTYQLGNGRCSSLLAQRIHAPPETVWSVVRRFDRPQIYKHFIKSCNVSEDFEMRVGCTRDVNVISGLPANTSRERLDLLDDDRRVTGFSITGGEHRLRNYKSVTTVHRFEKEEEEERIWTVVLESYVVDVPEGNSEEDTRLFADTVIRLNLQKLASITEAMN
F56R: 11.8%
T86N: 109%
H34A: 102%
I33N: -7.76%
Y18T: 102%
T119N: 43.3%
E151H: 101%
C25I: 101%
E152G: 98.1%
D3C: 102%
N149H: 64.1%
I57F: 47.8%
A170S: 94.2%
L112Y: 44.2%
H16N: 27.7%
K126M: 107%

Sample 3 — target: CCNE2, cyclin fold, Cln2 fusion (human); method: yeast growth competition, sequencing; medium: yeast; notes: weak parent motif; relative to: not given; direction: higher = stronger binding; measurement: normalised enrichment score
Starting sequence: PKMYT1 docking peptide (human); SFEPRNLLSLFED; partner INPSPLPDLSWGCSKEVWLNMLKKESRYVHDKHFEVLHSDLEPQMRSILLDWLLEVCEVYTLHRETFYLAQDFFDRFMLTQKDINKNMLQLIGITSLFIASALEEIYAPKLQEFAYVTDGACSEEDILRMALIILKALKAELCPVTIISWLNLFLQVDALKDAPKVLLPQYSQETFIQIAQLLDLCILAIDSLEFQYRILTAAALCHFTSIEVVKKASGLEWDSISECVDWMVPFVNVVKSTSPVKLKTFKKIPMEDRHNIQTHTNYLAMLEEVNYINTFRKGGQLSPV
P4G: -0.17
L7R: -0.313
E3L: 0.502
N6P: 0.0408
S1T: -0.0215
D13R: 0.198
P4W: -0.0284
D13M: 0.677
L10G: -0.306
E3G: -0.256
L10V: 0.294
F2R: -0.0225
L8A: 0.439
E12V: 1.13
S1E: 0.044
F11A: -0.216

Sample 4 — method: RNA Bind-n-Seq; form: RNA; medium: in vitro; tested at: 200 nM; notes: whole 134-nt RNA, ends assumed; added: 150 mM KCl; relative to: input library; direction: higher = stronger binding; measurement: log2 enrichment
Target: Fragile X messenger ribonucleoprotein 1, C-terminal low-complexity region (Fmr1, Mus musculus, UniProt P35922)
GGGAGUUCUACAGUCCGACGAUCGUGCUACACAUCGUAUGUACCGAAUCGGGGUUUUUUUGGGGAAAAAAAGGGGUUUUUUUGGGGAAAGUAUUAUGUUACGCCGUUCGGAUCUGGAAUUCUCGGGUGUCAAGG: 0.459
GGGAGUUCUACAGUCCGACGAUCUGGCCCUGGUGGCAUGCGGGGAGCAAGAGGUGGCCUCAUGGAUCGUGGUGGUCCCGGUGGAAUGUUCAGAGGUGGCCGUGGUGGAGACAGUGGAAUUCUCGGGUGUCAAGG: -0.114
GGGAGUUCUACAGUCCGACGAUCCCUGUGCUACACAUCGUAUGUACCGAAUCGGGUUUUUUGGGGUUUUUUGGGGUUUUUUGGAAAGUAUUAUGUUACGCCGUUCGGAUCUGCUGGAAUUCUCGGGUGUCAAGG: -0.224
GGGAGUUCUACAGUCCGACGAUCAGAGAAAAGGAACAGUUCCGUAAGCUCUUUAUUGGUGGCUUAAGCUUUGAAACCACAGAAGAAAGUUUGAGGAACUACUACGAACAAUGGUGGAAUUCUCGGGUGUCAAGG: -1.96
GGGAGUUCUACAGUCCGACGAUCGAAAUACCAUCGGAAGACGAUGGGACGGUGCUGCUCUCCACGGUUACAGCCCAGUUUCCAGGGGCGUGUGGGCUUCGCUACAGGAAUCCAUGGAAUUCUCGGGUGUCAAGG: -0.957
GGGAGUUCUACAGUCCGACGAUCGUCCUGUGCUACACAUCGUAUGUACCGAAUCGGGGUGGGGAAAAAAAGGGGAAAGGGGAAAGUAUUAUGUUACGCCGUUCGGAUCUGCACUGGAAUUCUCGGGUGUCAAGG: 0.457
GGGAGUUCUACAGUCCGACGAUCUCCUGUGCUACACAUCGUAUGUACCGAAUCGGGAAAAAAAGGGUUUGGGUUUUUUUGGGAAAGUAUUAUGUUACGCCGUUCGGAUCUGCAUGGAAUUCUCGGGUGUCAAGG: -0.138
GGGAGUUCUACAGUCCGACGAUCCACAGACAACACGCACCCACACAGACACAGAGGGAAGGGGUUGGGAUGGGGAGAGGGUGCACAGCAGGGCGGGGUAGGACCCCAGCCCCUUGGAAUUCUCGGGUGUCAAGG: 1.2
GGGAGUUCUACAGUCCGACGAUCAGUCCUGUGCUACACAUCGUAUGUACCGAAUCGGGAAAGGGAAAGGGUUUUUUUGGGAAAGUAUUAUGUUACGCCGUUCGGAUCUGCACUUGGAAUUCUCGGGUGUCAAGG: 0.0476
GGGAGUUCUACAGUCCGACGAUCUCAAGUCCUGUGCUACACAUCGUAUGUACCGAAUCGGAAAGGAAAAAGGUUUGGAAAGUAUUAUGUUACGCCGUUCGGAUCUGCACUUCCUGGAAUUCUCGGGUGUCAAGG: -0.992
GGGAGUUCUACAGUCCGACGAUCCUCAAGUCCUGUGCUACACAUCGUAUGUACCGAAUCGGGGUUGGGUUGGGUUGGAAAGUAUUAUGUUACGCCGUUCGGAUCUGCACUUCCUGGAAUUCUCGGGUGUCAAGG: 0.461
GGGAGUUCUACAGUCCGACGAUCCCUCAAGUCCUGUGCUACACAUCGUAUGUACCGAAUCGGGGCGGCGGGGCGGGAAAGUAUUAUGUUACGCCGUUCGGAUCUGCACUUCCAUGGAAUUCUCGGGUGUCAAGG: 0.97
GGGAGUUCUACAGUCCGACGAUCUCCUCAAGUCCUGUGCUACACAUCGUAUGUACCGAAUCGGCGGCGGGGCGGGAAAGUAUUAUGUUACGCCGUUCGGAUCUGCACUUCCAGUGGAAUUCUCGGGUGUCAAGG: 0.427
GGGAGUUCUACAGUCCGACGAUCCCUCAAGUCCUGUGCUACACAUCGUAUGUACCGAAUCGGAAAAAGGUGGAGGAAAGUAUUAUGUUACGCCGUUCGGAUCUGCACUUCCAGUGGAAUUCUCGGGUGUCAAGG: 0.295

Sample 5 — target: CDC34 UBC core domain (UniProt P49427); method: yeast two-hybrid; medium: yeast; notes: mostly zero background; relative to: not given; direction: higher = stronger interaction; measurement: lacZ reporter activity
B1: TRIM15 RING domain (UniProt Q9C019); chain SLKVVHELPACTLCAGPLEDAVTIPCGHTFCRLCLPALSQMGAQSSGKILLCPLCQEEEQAETPMA
B2: MSL2 RING domain (UniProt Q9HCI7); chain LLPYFRQSLSCCVCGHLLQDPIAPTNSTCQHYVCKTCKGKKMMMKPSCSWCKDYEQFEENKQ
B3: UBE4A RING domain (UniProt Q14139); chain LQQQEEETYADACDEFLDPIMSTLMCDPVVLPSSRVTVDRSTIARHLLSDQTDPFNRSPLTMDQIRPNTELKEKIQRWLAERKQQKEQLE
B4: TRIM38 RING domain (UniProt O00635); chain STKKMMEEATCSICLSLMTNPVSINCGHSYCHLCITDFFKNPSQKQLRQETFCCPQCRAPFHMDSLRP
B5: RNF4 RING domain (UniProt P78317); chain TGLRPSGTVSCPICMDGYSEIVQNGRLIVSTECGHVFCSQCLRDSLKNANTCPTCRKKINHKRYHP
B6: RNF112 RING domain (UniProt Q9ULX5); chain QPMAPRELPTCSICLERLRDPISLDCGHDFCIRCFSTHRLPGCEPPCCPECRKICKQKRGLR
Target sequence (chain): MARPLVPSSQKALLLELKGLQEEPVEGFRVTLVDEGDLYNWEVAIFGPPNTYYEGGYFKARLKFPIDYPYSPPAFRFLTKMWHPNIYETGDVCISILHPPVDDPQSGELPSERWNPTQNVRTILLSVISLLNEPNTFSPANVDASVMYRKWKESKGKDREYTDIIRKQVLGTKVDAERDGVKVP
B1 (TRIM15 RING domain): 0
B2 (MSL2 RING domain): 0
B3 (UBE4A RING domain): 0
B4 (TRIM38 RING domain): 0
B5 (RNF4 RING domain): 0
MANWVFCNRCFQPPHRTSCFSLTNCGHVYCDACLGKGKKNECLICKAPCRTVLLSK (RNF212 RING domain (UniProt Q495C1)): 0
LKQVSIRENCCSLCCDEVADTQLKPCGHSDLCMDCALQLETCPLCRKEIVSRIRQI (RSPRY1 RING domain (UniProt Q96DX4)): 0
B6 (RNF112 RING domain): 0
